# Measurements gathered from unrelated publications.
# Parts stem from different laboratories: compare values within a part only.

# Sample 1 — technique: universal PBM; form: double-stranded DNA, one strand shown; sample: in vitro; concentration: 600 nM; reading: higher = stronger binding
# Target: Sal-like protein 4, full length isoform A (SALL4, Homo sapiens, UniProt Q9UJQ4, residues 1-1053)
# Chain of UniProt Q9UJQ4 (whole entry, looked up): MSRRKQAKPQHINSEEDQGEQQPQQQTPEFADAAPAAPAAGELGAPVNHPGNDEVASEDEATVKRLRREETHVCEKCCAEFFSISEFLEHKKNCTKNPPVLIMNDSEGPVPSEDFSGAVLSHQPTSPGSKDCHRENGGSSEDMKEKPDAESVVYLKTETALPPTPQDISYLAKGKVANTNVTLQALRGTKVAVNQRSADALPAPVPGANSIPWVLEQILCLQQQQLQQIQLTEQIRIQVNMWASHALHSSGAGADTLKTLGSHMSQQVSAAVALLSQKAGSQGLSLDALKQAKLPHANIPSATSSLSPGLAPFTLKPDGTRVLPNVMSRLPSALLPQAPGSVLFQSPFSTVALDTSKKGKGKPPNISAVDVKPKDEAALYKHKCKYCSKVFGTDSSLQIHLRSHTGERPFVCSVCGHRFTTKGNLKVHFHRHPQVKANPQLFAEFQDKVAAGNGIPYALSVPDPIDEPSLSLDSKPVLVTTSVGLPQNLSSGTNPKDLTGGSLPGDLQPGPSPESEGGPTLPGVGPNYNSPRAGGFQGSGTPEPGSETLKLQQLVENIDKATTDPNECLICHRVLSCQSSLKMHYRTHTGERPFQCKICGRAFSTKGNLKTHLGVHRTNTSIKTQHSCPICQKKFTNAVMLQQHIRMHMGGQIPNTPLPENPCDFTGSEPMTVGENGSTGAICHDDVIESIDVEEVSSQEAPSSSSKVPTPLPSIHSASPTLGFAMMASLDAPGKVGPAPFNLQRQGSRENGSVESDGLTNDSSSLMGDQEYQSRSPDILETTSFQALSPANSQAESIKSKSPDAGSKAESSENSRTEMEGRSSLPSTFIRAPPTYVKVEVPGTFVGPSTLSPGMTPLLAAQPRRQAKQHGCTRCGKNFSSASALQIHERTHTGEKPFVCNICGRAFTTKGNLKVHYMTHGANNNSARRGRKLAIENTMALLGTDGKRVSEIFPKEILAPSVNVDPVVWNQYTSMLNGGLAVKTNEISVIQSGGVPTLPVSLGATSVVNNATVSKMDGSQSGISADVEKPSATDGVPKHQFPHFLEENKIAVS
# Notes: 8-mer, flanks averaged, mean of replicates
Sequence,E-score
ACCCAGTA,-0.116
ACTGAAGT,0.0814
AATTAGCG,0.00578
CATGAAAG,0.105
CCTTATAG,0.246
TCTCAAAA,0.279
TGAATACA,0.297
ACCCCGAC,-0.213
CCCTTGCC,-0.238
TAGGATAA,0.167
ACTGCACA,-0.0403
GGTGCGGA,-0.163
GTCTTGAA,0.0836
ACCCAAAT,0.105
AACATTCC,0.0553
AGCGGTCC,-0.247
CAAGGCTA,-0.00148
CCTCTCAA,-0.0676
AAATACAC,0.219
GGAGGTCA,-0.199
ACGAGTAC,0.0353
GCCAGACA,-0.0333
AGCTTCAC,-0.138
ATGCGTCC,-0.217
AACCCTCT,-0.14

# Sample 2 — technique: RNA Bind-n-Seq; form: RNA; sample: in vitro; concentration: 365 nM; relative to: no-protein control; reading: higher = stronger binding
# Target: RNA binding protein fox-1 homolog 2, RRM domain, GST-SBP tag (RBFOX2, Homo sapiens, UniProt O43251-10, residues 100-194)
# Notes: natural RNA segment, single round, ends assumed
# Target sequence (chain): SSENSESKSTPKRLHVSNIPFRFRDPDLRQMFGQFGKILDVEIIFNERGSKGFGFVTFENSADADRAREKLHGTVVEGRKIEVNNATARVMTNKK
Sequence,RBNS enrichment (R)
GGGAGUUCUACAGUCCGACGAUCCUCGGCCGUCUAGCAGCUCCCAGAACCCGCGGCUGCCACCGCAUCCUUAUAAACCUGUCAGCACGCAUGAGGGUGUCUGUGUUCAGGGAAAUGAAUGACUAAUACCAUUAUGGAAUUCUCGGGUGCCAA,5.7
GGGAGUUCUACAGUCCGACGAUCCCCCAGCAUCACUCCCCAAGGAAGAGCCAAUGUUUUCCACCCAUAAUCCUUUCUGCCGACCCCUAGUUCCCUCUGCUCAGCCAAGCUUGUUAUCAGCUUUCAGGGCCAUGUGGAAUUCUCGGGUGCCAA,0.824
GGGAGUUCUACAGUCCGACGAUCCCCCUCACGUCCCAUGUGCUCAGACCCAGAAAAAGCAGAACAGAAUUAGAAGUGCCUCUGAGCCUUGUGAAGUGUGUGCGCAAGCCCCCAUGGAGAAAUGGAGACAUCUUUGGAAUUCUCGGGUGCCAA,0.848
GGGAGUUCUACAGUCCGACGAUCUGCCUUAACAAUCCCCAGACAGUGUUCUCUCAAGCAGUGUUCCAGACUUGUUGGGUGUGAAGAUAAAUGCAUGUAAGAGCAGCCCUUUGGAGGCUGAGGCAGGAGAAUCUUGGAAUUCUCGGGUGCCAA,21.5
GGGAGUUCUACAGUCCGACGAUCAAGGCAGUUUAGAGAAUGAAGUAAACCAAUAGAUACUCUUUUGAUUCUCCAAAGAAAUAUAAUUUUGGUUUUUGUUCCUCAGAGAGAGUUUGAAAGAAAUUUUCAGAUGUUGGAAUUCUCGGGUGCCAA,0.613
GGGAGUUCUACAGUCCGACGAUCUUCAUAAUGAGAUAUAUGUAAUGGAUAGUACAAAGUUUGGAGACUCAACAAAUGCUCUAACCUUCUAGAGACAAAAGUCCUAUUUCUGUUUUCUUUUGUCUUUUUAUUUUUGGAAUUCUCGGGUGCCAA,0.427
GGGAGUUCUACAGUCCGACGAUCAGGAAAGGGAAAGAUGUUGCCAUAUUUCCUACUCUUUAGGCAUGGACUCUCCUUUCCCUUUGUUAGUGUCCUGGGUUCCCAUGGACUCAGGGAUUUGUUGGCUAAGGUUUUGGAAUUCUCGGGUGCCAA,0.284
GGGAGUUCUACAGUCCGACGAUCGUGGUGGUAGCCAUCCCACAUGGUGUCCAGAGGAAAGCUACGCGCAUUUAUACUGUCUGUUCUGUACAGUUCUCUCAGAUAAUGACAAUAGCUUGGGAUUUUUUUUUUUUUGGAAUUCUCGGGUGCCAA,0.36

# Sample 3 — technique: RNA Bind-n-Seq; form: RNA; sample: in vitro; concentration: not given; relative to: input RNA pool; reading: higher = stronger binding
# Target: RING finger protein unkempt homolog, zinc fingers 1-6, GST-SBP tag (UNK, Homo sapiens, UniProt Q9C0B0, residues 30-357)
# Notes: RNA with constant flanks, human and mouse sites, ends assumed
# Target sequence (chain): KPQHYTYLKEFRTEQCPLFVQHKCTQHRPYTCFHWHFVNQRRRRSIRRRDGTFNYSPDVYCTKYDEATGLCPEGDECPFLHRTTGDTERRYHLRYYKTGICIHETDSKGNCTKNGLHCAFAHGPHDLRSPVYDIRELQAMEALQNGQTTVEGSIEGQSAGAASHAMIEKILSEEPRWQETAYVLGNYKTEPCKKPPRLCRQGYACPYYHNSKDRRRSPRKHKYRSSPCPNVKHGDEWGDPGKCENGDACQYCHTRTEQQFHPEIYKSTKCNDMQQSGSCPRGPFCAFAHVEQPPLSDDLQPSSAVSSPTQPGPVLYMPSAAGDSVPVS
Sequence,bound/input enrichment [ratio]
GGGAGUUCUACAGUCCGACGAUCGGCCAUGGUGAUGACAACCAUGCAGAUGCUGACCGAUCACCUAUAUUUCUUCAGUUUAUUGAUUGUGUUUGGCAGAUGACAAGACAGUUCCCUUCAGCAUUUGAGUUUAAUGAAUUAUUCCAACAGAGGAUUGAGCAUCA,0.473
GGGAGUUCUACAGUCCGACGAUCGAACAUACAAGAAGCCAGAUGCUAUGGCACAUGUUUGUAACCUCAGGAUCCUACAGGGAGAUUUGAAACAGAGAUAAGAGAAUCCCUAGAAGCUCCCAGGCCAGCUAGCCAGGCAUCGUUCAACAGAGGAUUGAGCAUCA,0.141
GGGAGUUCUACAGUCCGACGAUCAGAAAAAUACAUCUUUCUGAAUUAAUGCUGGAGAAAUGCCCUUUUCCUGCUGGCUCGGAUUUAGCACAAAAGUGGCAUUUGAUUAAACAGCAUACCGCCCCUGUGAGCCCACACUCAACACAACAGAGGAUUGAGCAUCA,0.0992
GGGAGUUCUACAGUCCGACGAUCAUUUGGUCAAGGCCAGAAAGCACCCAGGUACAGAACAUCCUGCGCCAGAGAACAGAGAAUAUAGAUAUUAAAAAGUAUUGUGUGCAGUACCUGGAGGAUGUAGGUUCUUUUGCAUACACUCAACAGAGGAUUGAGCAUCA,4.9
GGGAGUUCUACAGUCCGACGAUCAUGGCUCACAAUCCUAAUAUGACUCAUCUGAAGAUUAAGCAGCCAGUGACAGCCCUUCCUCCUCUUUGGGUGAGAUGUGACGGUUCAGAUCCUGAAGGUACCUGUUGGCUAGGAGCUGAGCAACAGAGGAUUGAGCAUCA,0.227
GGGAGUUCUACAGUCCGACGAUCAUGUCUUUUCAGAAGCCUAAAGGAACCAUUGAAUAUACUGUUGAAUCAAGGGAUUCUUUGAAUAGCAUAGCCCUGAAAUUUGAUACCACACCCAAUGAACUUGUUCAGUUAAAUAAGUUACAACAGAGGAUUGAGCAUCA,0.248
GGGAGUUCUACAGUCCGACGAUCUCAGAACUCAUCUCUACUCGGUUCACAGGCGCCACUGGUAGAGCAUUUCUUUUUAACAAGGUAGUUAACUUGCAGUACAGUGAAGUUCAAGAUCGGGUCAUGCUCACUGGCCGCCACAUGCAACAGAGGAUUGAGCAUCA,0.295
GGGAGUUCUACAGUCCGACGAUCCUAUUGGUCUUGGAUGAGUUCAAAAUGGAGAAAAGAAUCAGCAGAAUGUUUUAUAUAAUGACUUUCCUCUUCCUAACCUUGUGGGGUCCCUACCUGGUGGCCUGCUAUUGGAGAGUUUUUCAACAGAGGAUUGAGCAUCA,0.269

# Sample 4 — technique: RNAcompete; form: RNA; sample: in vitro; concentration: 20 nM; notes: 7-mer, probes averaged, single round; relative to: mean of 7-mers; reading: higher = stronger binding
# Target: PABPC1L2, full length, GST fusion (mouse, UniProt A0ABA7IW68)
# Construct (chain): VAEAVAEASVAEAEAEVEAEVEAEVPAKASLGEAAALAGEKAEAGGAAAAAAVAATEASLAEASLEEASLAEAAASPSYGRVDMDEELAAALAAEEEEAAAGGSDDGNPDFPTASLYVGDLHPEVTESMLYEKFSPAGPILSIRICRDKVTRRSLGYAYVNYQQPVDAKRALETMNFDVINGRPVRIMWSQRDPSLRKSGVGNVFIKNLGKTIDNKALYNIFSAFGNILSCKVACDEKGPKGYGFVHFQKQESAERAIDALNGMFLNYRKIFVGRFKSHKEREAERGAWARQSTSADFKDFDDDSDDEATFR
Sequence,7-mer Z-score
UGUCGCC,-0.505
CGUUAAA,0.216
CAAUUAU,-0.0736
CCAUCCC,-0.374
CCACUCC,-0.385
UUUAAUA,-0.159
GAUACAA,0.367
CAGACAC,0.111
GCCUAAU,-0.327
UAAGAUG,0.075
AUACCGU,-0.193
CUGCAAG,-0.157
CUCAUGA,-0.103
CGACCAC,-0.103
CACACCG,-0.269
UGGUUUA,-0.36
UCUAGGU,-0.258
UAGUUCG,-0.347
GCGAAAU,0.037
GGGGCGU,0.302
UCAGAAC,-0.151
CCCACGA,-0.26
UACUUCC,-0.258

# A few entries again (sample 1):
Sequence,E-score
TAGGATAA,0.167
ACTGCACA,-0.0403
GGTGCGGA,-0.163
GTCTTGAA,0.0836
